Assay results pooled from the literature.
Each numbered part is a random draw from the data of one study; scales do not carry over between parts.

Study 1 — method: universal PBM; form: double-stranded DNA, one strand shown; matrix: in vitro; tested at: not given; direction: higher = stronger binding; quantity: E-score
Target: Sal-like protein 4, full length isoform B (SALL4, Homo sapiens, UniProt Q9UJQ4-2, residues 1-616)
Setting: 8-mer, flanks averaged, mean of replicates
CCCAGTGC: -0.376
AGTATGAA: 0.236
GGCAACTA: 0.0206
CTCAGGCA: -0.127
TGATAGCA: 0.128
ACGAATTA: 0.111
CAACCCTG: -0.0411
ACTTGGCT: -0.181
AACACCAG: -0.136
CATGCCCG: -0.181
CCTCCAAC: -0.155
CCCGGTGA: -0.351
ACCGACAC: -0.0722
CCTACCCC: -0.321
TGGATTAA: 0.253
AATAGGGG: 0.12
ACCCGGCG: -0.396
GAGCAGTA: 0.00411
AGAGCCAC: -0.168
CAGAACCC: -0.148
CGATGGGA: -0.0423
AATCCGGC: -0.236
CCAGACGA: -0.223
GAGGTGAA: -0.0167

Study 2 — method: RNA Bind-n-Seq; form: RNA; matrix: in vitro; tested at: 1 µM; setting: whole 134-nt RNA, ends assumed; with: 150 mM KCl; baseline: input library; direction: higher = stronger binding; quantity: log2 enrichment
Target: Ras GTPase-activating protein-binding protein 1, RRM domain (G3BP1, Homo sapiens, UniProt Q13283)
UniProt Q13283, sequence (whole entry, looked up): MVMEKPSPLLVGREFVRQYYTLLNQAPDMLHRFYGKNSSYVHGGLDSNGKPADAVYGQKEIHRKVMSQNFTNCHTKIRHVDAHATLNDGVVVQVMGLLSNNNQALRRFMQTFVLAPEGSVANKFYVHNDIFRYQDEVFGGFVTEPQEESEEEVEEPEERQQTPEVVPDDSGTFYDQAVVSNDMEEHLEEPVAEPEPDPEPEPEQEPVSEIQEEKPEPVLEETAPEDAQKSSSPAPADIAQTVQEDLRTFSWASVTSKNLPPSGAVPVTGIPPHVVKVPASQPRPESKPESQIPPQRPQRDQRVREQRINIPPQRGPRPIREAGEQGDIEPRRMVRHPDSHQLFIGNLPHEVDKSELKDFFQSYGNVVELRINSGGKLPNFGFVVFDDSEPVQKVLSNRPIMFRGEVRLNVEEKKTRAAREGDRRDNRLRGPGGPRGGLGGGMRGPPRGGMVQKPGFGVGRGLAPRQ
Constant ends, left off below: GGGAGUUCUACAGUCCGACGAUC … UGGAAUUCUCGGGUGUCAAGG
UGCAUUUCCUGAGCUGAAGAAGGACCCAGACAUGGUGAAGGACAUCAUUAAUGAAGAAGAGGUGCAGUUUCUCAAGACUCUCAGCAGAGG: -0.178
AGUCCUGUGCUACACAUCGUAUGUACCGAAUCGGAAAAAGGGGAAAAAGGAAAAAGGGAAAGUAUUAUGUUACGCCGUUCGGAUCUGCAC: -0.077
CCUGUGCUACACAUCGUAUGUACCGAAUCGGGGUUUUUUGGGGUUUUUUGGGUUUUUUGGAAAGUAUUAUGUUACGCCGUUCGGAUCUGC: -0.165
CUCAAGUCCUGUGCUACACAUCGUAUGUACCGAAUCGGAGGUUUUUUUGGAGGAAAGUAUUAUGUUACGCCGUUCGGAUCUGCACUUCCA: -0.17
UCCUGUGCUACACAUCGUAUGUACCGAAUCAAAUUUUUUUAAAUUUUUAAAUUUUUAAAAAAGUAUUAUGUUACGCCGUUCGGAUCUGCA: -0.235
AGUCCUGUGCUACACAUCGUAUGUACCGAAUCGGGGAAAGGGGUUUGGGGAAAGGGGAAAGUAUUAUGUUACGCCGUUCGGAUCUGCACU: 1.87
UCCUGUGCUACACAUCGUAUGUACCGAAUCGGGAAAAAGGGUUUUUGGGAAAAAAAGGGAAAGUAUUAUGUUACGCCGUUCGGAUCUGCA: -0.0309
AAGUCCUGUGCUACACAUCGUAUGUACCGAAUCGGCCCCGGGCCCCGGCCCCGGGGAAAGUAUUAUGUUACGCCGUUCGGAUCUGCACUU: -0.674
UCAAGUCCUGUGCUACACAUCGUAUGUACCGAAUCGGUUUGGUUUGGGUUUGGGAAAGUAUUAUGUUACGCCGUUCGGAUCUGCACUUCC: -0.257
UGUGCUACACAUCGUAUGUACCGAAUCGGGGAAAAAAAGGGAAAAAAAGGGGAAAAAAAGGGAAAGUAUUAUGUUACGCCGUUCGGAUCU: 0.214
GUGCUGGCUGGCCACGGUCACCUGUAUUCCCGCAUCCCAGGCCUGCUCAGCCCCCAUCCCCUGCUGCAGCUGAGCUACACGGCCACCGAC: -0.392
UGGCCCUGGUGGCAUGCGGGGAGGAAGAGGUGGCCUCAUGGAUCGUGGUGGUCCCGGUGGAAUAUUCAGAGGUGGCCGUGGUGGAGACAG: 0.617
UAACUUUAGAGGAGGAUCCGAUGGAUAUGGCAGUGGACGUGGAUUUGGGGAUGGCUAUAAUGGGUAUGGAGGAGGACCUGGAGGUGGCAA: -0.83
UAACUUUAGAGGAGGAUCUGAUGGAUAUGGCAGUGGACGUGGAUUUGGGGAUGGCUAUAAUGGGUAUGGAGGAGGACCUGGAGGUGGCAU: -0.331

Study 3 — method: aptamer microarray, sandwich; form: DNA with 2'F-ANA; matrix: in vitro; tested at: 200 nM; with: Cy3 exosite-II aptamer, 400 nM; direction: higher = stronger binding; quantity: mean fluorescence intensity; strand: GGTTGGTGTGGTTGG
Target: Prothrombin, mature alpha-thrombin (F2, Homo sapiens, UniProt P00734)
Setting: whole 15-mer aptamer, many near background
2'F-ANA at 2 6 9 10 12: 150 a.u.
2'F-ANA at 3 5 6 7 9 11 14: 48.3 a.u.
2'F-ANA at 1 2 5 7 8: 62.1 a.u.
2'F-ANA at 3 5 8 10 11 13 14 15: 55.1 a.u.
2'F-ANA at 3 6 8 10 12 14: 363 a.u.
2'F-ANA at 2 3 5 7 10 11 12 13 14 15: 54.6 a.u.
2'F-ANA at 6 7 14 15: 186 a.u.
2'F-ANA at 1 3 5 7 10 14 15: 54.7 a.u.
2'F-ANA at 2 7 14: 193 a.u.
2'F-ANA at 7 8 9 11 12 13 14: 209 a.u.
2'F-ANA at 2 3 4 5 7 8 9 10 11 14: 65.9 a.u.
2'F-ANA at 1 3 4 8 10 13 14 15: 52.2 a.u.
2'F-ANA at 1 3 4 5 6 13 14: 44.9 a.u.
2'F-ANA at 3 9 11 13 14: 565 a.u.
2'F-ANA at 1 4 6 7 10 11 13: 45.9 a.u.
2'F-ANA at 1 5 7 8 10 13 15: 46.4 a.u.
2'F-ANA at 2 3 4 6 8 9 10 14 15: 136 a.u.
2'F-ANA at 1 2 5 7 9 10 13 15: 47.1 a.u.
2'F-ANA at 1 2 3 10 13 14: 52.4 a.u.
2'F-ANA at 1 2 4 6 8 10 11 12 13 14: 50.6 a.u.
2'F-ANA at 1 4 5 7 8 9 10 11 12 13 15: 49.2 a.u.
2'F-ANA at 3 4 9 11 12 13 15: 637 a.u.
2'F-ANA at 4 6 11 13 14 15: 68.4 a.u.
2'F-ANA at 2 3 4 6 8 9 12 15: 808 a.u.
2'F-ANA at 1 2 4 6 7 8 13 14: 55.1 a.u.

Study 4 — method: protein binding microarray; form: double-stranded DNA, one strand shown; matrix: in vitro; tested at: not given; baseline: not given; direction: higher = stronger binding; quantity: E-score
Target: Histone acetyltransferase KAT6A, winged helix 1, GST fusion (KAT6A, Homo sapiens, UniProt Q92794, residues 1-85)
Setting: 8-mer, flanks averaged, mean of 2 arrays, mostly near background
Residues (chain): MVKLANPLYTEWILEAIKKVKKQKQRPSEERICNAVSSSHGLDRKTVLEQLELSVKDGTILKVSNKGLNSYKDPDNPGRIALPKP
AGCTGGAT: -0.222
CGGCAAGC: 0.36
GATCGTGA: -0.18
CGTGTGCC: 0.104
GTACAACA: -0.171
GAGGGTGA: -0.111
CCGAACCA: 0.03
ACGGTGTG: 0.0631
CCGGAAAG: 0.0638
AAACCCAG: -0.304
GTTAGCAA: -0.14
CCGAGCAC: 0.0103
AGCCTTGA: -0.156
CAAAGCCA: -0.211
CGCTTCGA: 0.166
TGGCCAAA: -0.143
CCGGGTAG: 0.0869
ATCTAACA: -0.191
CCATAGTC: -0.0888
GCGATTCA: 0.097
CATCCGTC: 0.185
GCCTAAGC: -0.0313
TAGTCTAA: -0.0853
GAGCTAAA: -0.197
TAGACCAA: -0.148

Study 5 — method: RNA Bind-n-Seq; form: RNA; matrix: in vitro; tested at: 365 nM; baseline: no-protein control; direction: higher = stronger binding; quantity: RBNS enrichment (R)
Target: RNA binding protein fox-1 homolog 2, RRM domain, GST-SBP tag (RBFOX2, Homo sapiens, UniProt O43251-10, residues 100-194)
Setting: natural RNA segment, single round, ends assumed
Constant ends, left off below: GGGAGUUCUACAGUCCGACGAUC … UGGAAUUCUCGGGUGCCAA
Construct (chain): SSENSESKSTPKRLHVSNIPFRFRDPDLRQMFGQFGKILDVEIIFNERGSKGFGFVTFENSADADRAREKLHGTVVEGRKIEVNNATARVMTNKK
GGAGUGUCCAUCUUUAGGGAAGAAGCAGACACAGGUGCCUUCAGCUGUCCAGUAUGGAGGAACACUCACCUGGACUUGCAGUUGGACUUUGAACAUCAAGAUCAAAUUAG: 0.313
GGCCUGAGAAAGGGCCAUGCCAGGGCACAGUGCUGGGUUGCCACACAUGGGAGGGCAGCUUCUAGCCGGGUGCUUGGGGGAGGCGGGGCUCAGCCUCCUGCUGCCCUGCC: 0.343
UAAAAGACAGAGGUGCUUGAAAAAGACAUUAAAAUCCUUACAAAGAAUGUACAUCAUCCCUCUUGGCCCAUUACAGUACUGCUCUCAGGUUCCUAUCAGUCCAUAUAAAC: 0.345
AGAGGCAGGAAGAGUUUUGAUUCUAUCCUUUUUUACUAAACAGUUUUAUUAUGACACUAGAUACAGUAAAUUUUUAGAAAAAAAUACCAUUUACAGUAUUAUUGUGAACC: 0.519
CCAUUUGGAUGCGGCUCCAACCUUCCUUCCCUGCGUGUAAAUGAAUCCUGAACCUCGUACUUCACCUAAUGUUAGGGGCUUGCUCGUCUGCACAGGACUUAUUAACAAGU: 0.668
CAAUCUCAGCCCUCCACGCCAAGGAGCCUUGCCCACCAGCCAAUCAAUGUUCGUCUCUGCCCUGAUGCUGCCUCAGGAUCCCCCAUUCCCCACCCUGGGAGAUGAGGGGG: 0.494
CCUUAAAACUUAUUGGAUUAUGAAUGUUAUCAGAGUACUGAAUUGUAUCAAUUUGUUUGCAGUUAAUAUCAGCUUUGAUAGUCAUGUACCUUGACAUAGUGAAGGACACU: 0.571
CUGCUGCCUAUUUCCAGCCAGCGGCUGCAUGGUUUGAAGUUCCUCCGUUGUGGUCAGAGGAACUCUGGUGUUUGGUUCCCUGCUCAGCUGCGCGUGGACUGGGCUGAGCU: 6.15
CGACCGCCCCAGCCUGUGCCCGCCCCGUGCCUGCCGUGGCUGGUGGGUGGCGGUGGUGGGGCCGGGUGGGCCCCCGCCCAGCGCCUGCUGGAAUGAGAAGCACAGACUCC: 0.268
AAGGGACGUGGGUUUGAAGGCAGCAGCAGUGCUUACUUAACCUGCAUUUCAGCAUUUGGCAAGUUCUCUCUUGCUGGCGUCAGAGUAGCUGGCCCAGCUCUUAGCUUGUU: 0.674
GCGUAUCCGCCACCAGGGACAUUAAGAAACCGCACGUGAUGUCGCUAUGCUCUAACGAUCACCUCAGUUCUCCCUCGGAUUCUGGGAACAGAUGAAACUUUUUGCAUCGC: 1.34
GUGUCGCUUGUAUGUUAUCGUACAGCUGACAUGUAUUUUUGUCUAUUCUUUAUUAUCUUAGUUUCAUGCUAUGUAUGUACCAUAACCAACCUAUUGCCUAUGAGAAACAU: 0.509

A few entries again (study 1):
GGCAACTA: 0.0206
CCCGGTGA: -0.351
GAGGTGAA: -0.0167
TGGATTAA: 0.253
CCTCCAAC: -0.155
